Experimental data collected from several papers.
Each numbered part is a random draw from the data of one study; scales do not carry over between parts. Changes are numbered by the printed parent chain.
Sequence of UniProt P00519 (whole entry, unmodified, looked up): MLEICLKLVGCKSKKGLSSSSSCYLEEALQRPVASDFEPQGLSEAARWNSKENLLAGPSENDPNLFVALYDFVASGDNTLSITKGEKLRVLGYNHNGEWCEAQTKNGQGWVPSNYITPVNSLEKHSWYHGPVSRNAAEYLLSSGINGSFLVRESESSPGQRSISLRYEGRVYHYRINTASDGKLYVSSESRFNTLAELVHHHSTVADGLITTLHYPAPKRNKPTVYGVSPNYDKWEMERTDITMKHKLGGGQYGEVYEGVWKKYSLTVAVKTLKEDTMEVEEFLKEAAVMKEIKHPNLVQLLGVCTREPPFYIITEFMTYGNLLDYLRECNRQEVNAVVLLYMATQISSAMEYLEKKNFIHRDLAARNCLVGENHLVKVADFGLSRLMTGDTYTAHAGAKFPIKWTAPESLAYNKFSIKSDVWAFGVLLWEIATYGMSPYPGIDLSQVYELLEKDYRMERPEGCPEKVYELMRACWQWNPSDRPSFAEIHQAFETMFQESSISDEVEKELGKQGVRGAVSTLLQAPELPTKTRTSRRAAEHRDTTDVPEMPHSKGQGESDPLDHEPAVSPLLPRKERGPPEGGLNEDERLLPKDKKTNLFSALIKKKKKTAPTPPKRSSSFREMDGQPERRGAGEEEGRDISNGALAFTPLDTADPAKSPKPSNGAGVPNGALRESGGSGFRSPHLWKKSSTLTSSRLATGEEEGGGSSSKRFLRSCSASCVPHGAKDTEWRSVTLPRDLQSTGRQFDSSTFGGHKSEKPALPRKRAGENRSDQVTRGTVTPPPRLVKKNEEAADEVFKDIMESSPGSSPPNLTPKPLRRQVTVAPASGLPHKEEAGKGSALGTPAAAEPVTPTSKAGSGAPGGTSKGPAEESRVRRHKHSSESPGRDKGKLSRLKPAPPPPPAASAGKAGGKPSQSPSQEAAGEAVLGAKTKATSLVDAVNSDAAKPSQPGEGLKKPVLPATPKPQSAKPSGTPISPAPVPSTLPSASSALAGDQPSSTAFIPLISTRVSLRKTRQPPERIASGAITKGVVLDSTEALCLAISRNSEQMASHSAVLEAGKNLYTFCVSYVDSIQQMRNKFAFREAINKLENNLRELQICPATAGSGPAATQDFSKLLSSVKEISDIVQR
Sequence of UniProt Q9Y4K4 (whole entry, looked up): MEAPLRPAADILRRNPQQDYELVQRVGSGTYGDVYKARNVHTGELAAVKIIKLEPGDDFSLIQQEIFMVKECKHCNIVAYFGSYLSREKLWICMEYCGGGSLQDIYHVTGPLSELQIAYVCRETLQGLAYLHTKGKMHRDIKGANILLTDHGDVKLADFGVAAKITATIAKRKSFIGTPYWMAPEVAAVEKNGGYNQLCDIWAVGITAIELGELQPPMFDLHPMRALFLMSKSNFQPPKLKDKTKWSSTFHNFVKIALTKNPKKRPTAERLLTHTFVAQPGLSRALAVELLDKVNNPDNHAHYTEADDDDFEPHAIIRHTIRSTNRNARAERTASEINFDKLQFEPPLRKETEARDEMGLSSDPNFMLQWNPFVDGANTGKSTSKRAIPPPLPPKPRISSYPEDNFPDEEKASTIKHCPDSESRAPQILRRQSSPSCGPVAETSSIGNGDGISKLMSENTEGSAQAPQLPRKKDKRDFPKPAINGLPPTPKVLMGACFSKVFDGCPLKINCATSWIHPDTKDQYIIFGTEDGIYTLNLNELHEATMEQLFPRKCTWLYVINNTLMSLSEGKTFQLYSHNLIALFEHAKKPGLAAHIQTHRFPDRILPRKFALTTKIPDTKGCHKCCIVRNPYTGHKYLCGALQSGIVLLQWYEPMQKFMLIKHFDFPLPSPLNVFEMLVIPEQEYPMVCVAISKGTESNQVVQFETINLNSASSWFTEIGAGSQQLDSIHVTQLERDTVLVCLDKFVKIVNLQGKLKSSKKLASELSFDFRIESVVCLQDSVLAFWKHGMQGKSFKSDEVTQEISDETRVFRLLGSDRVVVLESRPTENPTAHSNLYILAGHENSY

Set 1
Target: Prothrombin, mature alpha-thrombin (F2, Homo sapiens, UniProt P00734)
Method: aptamer microarray, sandwich
Form: DNA with 2'F-ANA
Medium: in vitro
Concentration: 200 nM
Setting: whole 15-mer aptamer, many near background
Added: Cy3 exosite-II aptamer, 400 nM
Reading: higher = stronger binding
Oligonucleotide: GGTTGGTGTGGTTGG
Modification	mean fluorescence intensity
2'F-ANA at 1 3 4 5 7 8 9 11 15	60.2 a.u.
2'F-ANA at 2 3 6 7 9 10 12	372 a.u.
2'F-ANA at 1 3 4 5 9 10 13 15	86.3 a.u.
2'F-ANA at 1 2 4 6 8 14 15	64.1 a.u.
2'F-ANA at 1 3 5 6 7 8 9 13 14	47.9 a.u.
2'F-ANA at 2 3 6 7 9 10 11 12	346 a.u.
2'F-ANA at 7 8 10 14	115 a.u.
2'F-ANA at 1 3 4 5 6 8 9 10 11 12 13 15	52.3 a.u.

Set 2
Target: CCNB1, cyclin fold, Cln2 fusion (human)
Method: yeast growth competition, sequencing
Medium: yeast
Setting: weak parent motif
Baseline: not given
Reading: higher = stronger binding
Parent: SCAPER docking peptide (human); SNARRSLNFGGST
Change	normalised enrichment score
SNARRWLNFGGST [S6W]	0.876
SNARRSINFGGST [L7I]	0.0607
SIARRSLNFGGST [N2I]	0.456
SNARRSLNFGGSC [T13C]	0.466
SNAGRSLNFGGST [R4G]	0.63
SNARRSLNFGNST [G11N]	0.0512
SNARRSLNFGVST [G11V]	0.533
SNARRSHNFGGST [L7H]	0.815

Other studies, line by line
SMILES	target	assay	conditions	scale	quantity	result
C[C@H](NC(=O)Nc1cc2[nH]ncc2c(CO)n1)c1ccccn1	Tyrosine-protein kinase ABL1, phosphorylated (ABL1, Homo sapiens, UniProt P00519, E255K)	binding, competition with immobilised ligand	1 µM		remaining binding	81.4%
O=C1C(Cl)=C(N2C(=O)CCC2=O)C(=O)c2ccccc21	MAP4K5 (Homo sapiens, UniProt Q9Y4K4)	enzyme activity, inhibitor	0.5 µM	baseline: control	remaining activity	90.4%

For quick reference, copied from above (set 2):
Change	normalised enrichment score
SNAGRSLNFGGST [R4G]	0.63
